Measured values pooled from the literature.
Parts stem from different laboratories: compare values within a part only.

Series 1
Target: Histone acetyltransferase KAT6A, winged helix 1, GST fusion (KAT6A, Homo sapiens, UniProt Q92794, residues 1-85)
Technique: protein binding microarray
Molecule type: double-stranded DNA, one strand shown
Sample: in vitro
Concentration: not given
Setting: 8-mer, flanks averaged, mean of 2 arrays, mostly near background
Reference: not given
Direction: higher = stronger binding
Endpoint: E-score
Construct (chain): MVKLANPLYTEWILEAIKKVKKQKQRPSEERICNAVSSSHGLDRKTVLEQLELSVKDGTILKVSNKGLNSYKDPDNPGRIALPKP
CACGAGAA: -0.219
GTCCGAGA: 0.0979
AGTCAGTC: -0.171
GCATGCCC: 0.221
AAGGCTTA: -0.00082

Series 2
Target: Sal-like protein 4, full length isoform A (SALL4, Homo sapiens, UniProt Q9UJQ4, residues 1-1053)
Chain of UniProt Q9UJQ4 (whole entry, looked up): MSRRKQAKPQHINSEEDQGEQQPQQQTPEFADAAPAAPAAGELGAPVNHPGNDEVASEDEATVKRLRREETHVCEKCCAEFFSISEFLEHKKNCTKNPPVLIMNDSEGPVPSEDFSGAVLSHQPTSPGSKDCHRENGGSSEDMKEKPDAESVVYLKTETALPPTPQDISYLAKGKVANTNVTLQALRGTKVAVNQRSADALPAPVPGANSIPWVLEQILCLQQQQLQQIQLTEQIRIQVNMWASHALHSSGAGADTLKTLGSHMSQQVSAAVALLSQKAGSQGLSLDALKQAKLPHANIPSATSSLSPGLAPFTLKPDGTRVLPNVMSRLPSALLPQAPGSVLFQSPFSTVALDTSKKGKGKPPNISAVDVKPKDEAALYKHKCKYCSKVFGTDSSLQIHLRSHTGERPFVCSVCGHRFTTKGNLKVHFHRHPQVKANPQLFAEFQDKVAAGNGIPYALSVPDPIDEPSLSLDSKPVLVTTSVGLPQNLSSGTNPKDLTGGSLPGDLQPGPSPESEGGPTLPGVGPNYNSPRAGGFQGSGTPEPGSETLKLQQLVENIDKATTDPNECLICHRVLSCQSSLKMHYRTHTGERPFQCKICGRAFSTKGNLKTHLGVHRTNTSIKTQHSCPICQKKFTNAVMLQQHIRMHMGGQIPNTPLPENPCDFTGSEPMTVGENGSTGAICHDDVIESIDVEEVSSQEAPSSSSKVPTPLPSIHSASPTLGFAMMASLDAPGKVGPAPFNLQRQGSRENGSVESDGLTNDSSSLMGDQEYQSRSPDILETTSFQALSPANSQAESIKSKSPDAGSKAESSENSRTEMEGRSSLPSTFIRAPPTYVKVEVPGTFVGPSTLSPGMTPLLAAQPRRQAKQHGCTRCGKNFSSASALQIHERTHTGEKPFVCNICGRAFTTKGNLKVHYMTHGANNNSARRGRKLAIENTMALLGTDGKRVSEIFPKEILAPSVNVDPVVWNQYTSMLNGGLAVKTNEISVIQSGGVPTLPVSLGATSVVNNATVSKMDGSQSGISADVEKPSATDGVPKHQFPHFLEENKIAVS
Technique: universal PBM
Molecule type: double-stranded DNA, one strand shown
Sample: in vitro
Concentration: 600 nM
Setting: 8-mer, flanks averaged, mean of replicates
Direction: higher = stronger binding
Endpoint: E-score
TACGTTCA: 0.103
GACTGCAA: -0.0832
GCCCTAAC: -0.047
GCGGTAAC: 0.000425
CGACCGAA: -0.129

Series 3
Target: Interferon regulatory factor 7, full length, phosphomimetic (IRF7, Homo sapiens, UniProt Q92985, residues 1-503, S471D/S472D/S475D/S476D/S477D/S483D/S484D/S487D)
Chain of UniProt Q92985 (whole entry, unmodified, looked up): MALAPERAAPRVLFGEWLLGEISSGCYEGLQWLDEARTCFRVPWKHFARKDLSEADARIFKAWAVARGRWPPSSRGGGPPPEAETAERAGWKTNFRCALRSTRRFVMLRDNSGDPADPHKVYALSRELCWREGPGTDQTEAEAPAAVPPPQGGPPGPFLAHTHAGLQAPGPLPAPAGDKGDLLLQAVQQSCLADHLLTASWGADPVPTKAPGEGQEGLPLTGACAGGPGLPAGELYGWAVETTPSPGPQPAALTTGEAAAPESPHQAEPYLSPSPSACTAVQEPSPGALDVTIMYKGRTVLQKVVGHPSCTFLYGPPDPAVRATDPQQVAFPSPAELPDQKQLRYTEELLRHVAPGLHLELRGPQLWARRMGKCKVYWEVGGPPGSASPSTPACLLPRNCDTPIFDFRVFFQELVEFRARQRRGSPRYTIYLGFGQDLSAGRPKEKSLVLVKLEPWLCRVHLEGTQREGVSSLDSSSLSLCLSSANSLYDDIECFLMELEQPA
Technique: protein-binding microarray
Molecule type: double-stranded DNA, one strand shown
Sample: in vitro
Concentration: 2200 nM top
Setting: 60-bp whole probe
With: salmon DNA 0.4 mg/ml
Reference: random background probes
Direction: higher = stronger binding
Endpoint: fitted relative affinity
GCCTAGCACTTAGAACTGAGACTGGATTAGTGCTAGGTCTTGATTCGCTTGACGCTGCTG: -0.652 z-score
GCCTAGCACGAAGGTCTCCTTTTCCTGACGTGCTAGGTCTTGATTCGCTTGACGCTGCTG: 1.28 z-score
GCCTAGCACGACGAACAGAGTTTCGAGACGTGCTAGGTCTTGATTCGCTTGACGCTGCTG: 1.81 z-score
GCCTAGCACTTGTTTCCATTTTCTGAATGCGTGCTAGTCTTGATTCGCTTGACGCTGCTG: 6.83 z-score

Further values, each from its own experiment
PhoQ, residues 284 288 289 292 302 303 AANNSF — fold induction (PhoP, residues 12 14 15 18 19 IFFTR (Escherichia coli, UniProt P23836); Sort-seq, refers to: YFP reporter; E. coli; PhoQ-PhoP variant library, with: 10 µM Mg2+; reference: high Mg2+ state, higher = stronger signaling): 9.4

For quick reference, copied from above (series 2):
TACGTTCA: 0.103
GACTGCAA: -0.0832
